Results of several laboratories.
Every numbered part comes from another study and shows a few of its results, in no order.

Sample 1
Target: RING finger protein unkempt homolog, zinc fingers 1-6, GST-SBP tag (UNK, Homo sapiens, UniProt Q9C0B0, residues 30-357)
Chain of UniProt Q9C0B0 (30-357, looked up): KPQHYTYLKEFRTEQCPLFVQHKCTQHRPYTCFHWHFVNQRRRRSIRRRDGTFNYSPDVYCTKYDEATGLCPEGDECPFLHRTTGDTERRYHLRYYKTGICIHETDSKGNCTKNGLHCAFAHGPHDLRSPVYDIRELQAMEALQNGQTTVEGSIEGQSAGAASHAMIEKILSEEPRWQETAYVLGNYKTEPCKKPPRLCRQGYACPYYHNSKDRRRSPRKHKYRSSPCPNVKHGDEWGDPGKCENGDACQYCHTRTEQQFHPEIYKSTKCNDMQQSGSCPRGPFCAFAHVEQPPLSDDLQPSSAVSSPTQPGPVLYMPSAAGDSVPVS
Method: RNA Bind-n-Seq
Form: RNA
Matrix: in vitro
Concentration: not given
Notes: RNA with constant flanks, human-mouse chimeric sites, ends assumed
Baseline: input RNA pool
Direction: higher = stronger binding
`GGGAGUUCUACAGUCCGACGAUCCAGGGCAUCAUCUCUCGUGCUGUUAGACACCUGUUCAAGAGUAUUGAUGAGAAAAAGACCUCAGCGAUUAAAAACGGGCUUCCUGCUCCAGAUUUUAAAGUGAAUGCCCAGUUCCUAGAGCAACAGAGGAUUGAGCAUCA` gave a bound/input enrichment of 0.24 ratio.
The bound/input enrichment of `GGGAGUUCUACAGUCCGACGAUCUCUUUAAAAAAAAAAUUACCUUUUCUGACAGUGCUUUCCCUCCCAUAGGUCCAGGUUCAAGCUCAAAGGCCAAAACUUUUGCACGGAGCUCAAACAUCUGAUGAAGAAAGAUUUCUGAGACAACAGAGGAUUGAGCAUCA` is reported as 0.883 ratio.
`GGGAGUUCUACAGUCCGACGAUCAUUGUUGAAGCGAAUCCACUUUUAGAAGCAUUUGGAAAUGCAAAGACUGUUCGCAACAAUAAUAGCAGUCGAUUUGGGAAAUUUGUAGAAAUACAUUUCAAUGAAAAGAGUUCGGUUGUUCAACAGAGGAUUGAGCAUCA` gave a bound/input enrichment of 0.186 ratio.
With `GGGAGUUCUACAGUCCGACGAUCUAACCACAUCAAGAUGGUUGGGAAGCUGAAGCAGAACUUACUCUUGGCGUGUCUGGUGAUUAGUUCUGUGACUGUGUUUUACCUGGGCCAGCAUGCCAUGGAGUGCCAUCACCGAAUAGACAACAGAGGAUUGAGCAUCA` the bound/input enrichment was 0.518 ratio.
The bound/input enrichment of `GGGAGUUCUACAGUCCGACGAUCGCCACCAGAUCCCAGAAACAUGACUCUUGCUGCCUACAAAGAGAAGAUGAAGGAACUCCCGCUGGUGUCCUUGUUCUGCUCCUGCUUCCUGGCCGAUCCCCUGAAUAAGUCGUCCUACAACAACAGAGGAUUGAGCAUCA` is reported as 0.303 ratio.
`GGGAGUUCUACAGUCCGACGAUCCCAAGUGAUUCAUCCCAAGGACAGGCCACCCCAUUUGAUGCCUGGACUGAUGACAGUAUGUUAGGGCCUAGUCAAAAUGUUGAAGCUGAGUCAAUUCAGGAUGCCAUGAGUAUGGAAGAGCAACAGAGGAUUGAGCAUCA` has a bound/input enrichment of 0.35 ratio.

Sample 2
Target: Centromere-binding protein 1, full length, His-tagged (CBF1, Saccharomyces cerevisiae, UniProt P17106, residues 1-351)
Chain of UniProt P17106 (whole entry, looked up): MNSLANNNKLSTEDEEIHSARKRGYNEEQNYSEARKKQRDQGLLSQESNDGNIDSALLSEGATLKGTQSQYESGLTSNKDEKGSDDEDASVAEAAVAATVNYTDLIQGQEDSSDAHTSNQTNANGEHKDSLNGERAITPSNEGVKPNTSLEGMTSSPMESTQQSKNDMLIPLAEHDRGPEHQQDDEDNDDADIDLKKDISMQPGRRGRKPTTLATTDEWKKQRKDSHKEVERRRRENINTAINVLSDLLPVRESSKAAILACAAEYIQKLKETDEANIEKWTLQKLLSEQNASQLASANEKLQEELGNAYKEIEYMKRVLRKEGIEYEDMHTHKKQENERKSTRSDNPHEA
Method: competition protein-binding microarray
Form: double-stranded DNA, one strand shown
Matrix: in vitro
Concentration: 2 µM
Notes: whole 60-bp probe, lowest competitor level
With: Pho4 competitor, 0.05 µM
Direction: higher = stronger binding
The fluorescence intensity of `AAGCCACAAACTTTTTGCATGACAGTCATTGTGTACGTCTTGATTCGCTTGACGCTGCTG` is reported as 106 a.u.
The fluorescence intensity of `CTGGTAAGTTTTTGGCCTGTGCGGGTTCATAAGGGAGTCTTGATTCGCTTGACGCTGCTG` is reported as 65.5 a.u.
With `CGGGGTTAAGTTTTTCACGTGTATTGCTTGCAGCAGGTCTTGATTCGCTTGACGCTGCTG` the fluorescence intensity was 702 a.u.
The fluorescence intensity of `CTAACGAAGGTTTGTGTCGTGGGTGACAAGCCAAGTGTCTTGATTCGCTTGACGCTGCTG` is reported as 77.1 a.u.
With `CATACCCAACCTTGTCACAAAACTTAAGATATTTGTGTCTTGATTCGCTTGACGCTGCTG` the fluorescence intensity was 86.6 a.u.
With `CAAGTGGTGGTGATACACGTGAAGTTTTAGAGGAAAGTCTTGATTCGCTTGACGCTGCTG` the fluorescence intensity was 817 a.u.
For `CTTTCCCGATCTTTGCACGTGTTTTTAGCACATTTGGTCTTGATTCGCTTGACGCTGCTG`, the fluorescence intensity was 1930 a.u.
For `TGACATTGCTCGAGTCACGTTCAGAAAACGAGAAGAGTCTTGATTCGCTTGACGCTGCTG`, the fluorescence intensity was 436 a.u.
`CTTTCCCGATCTTGTCACCGCACTTTAGCACATTTGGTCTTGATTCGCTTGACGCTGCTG` has a fluorescence intensity of 73.9 a.u.
`ATATTAAAAAACCATCACGTGGTGAAAAAAAAAATTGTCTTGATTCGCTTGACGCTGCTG` gave a fluorescence intensity of 7640 a.u.
`GTGAGCGAAGAGGTTAATGATATCTTCGATTATTTGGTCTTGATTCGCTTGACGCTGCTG` gave a fluorescence intensity of 92.4 a.u.
The fluorescence intensity of `AAGGCCGAGAGGAAGCGCGTGATGGAAGCCCGATCTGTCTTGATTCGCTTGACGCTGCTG` is reported as 107 a.u.
For `CTGCTTTCGTTTCGCCAGGTGATTCTGTTGCCATTAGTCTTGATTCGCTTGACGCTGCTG`, the fluorescence intensity was 88.7 a.u.

Sample 3
Target: RNA binding protein fox-1 homolog 2, RRM domain, GST-SBP tag (RBFOX2, Homo sapiens, UniProt O43251-10, residues 100-194)
Method: RNA Bind-n-Seq
Form: RNA
Matrix: in vitro
Concentration: 365 nM
Notes: natural RNA segment, single round, ends assumed
Baseline: no-protein control
Direction: higher = stronger binding
Target sequence (chain): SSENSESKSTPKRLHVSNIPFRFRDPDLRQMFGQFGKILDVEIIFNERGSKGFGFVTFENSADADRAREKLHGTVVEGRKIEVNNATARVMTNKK
For `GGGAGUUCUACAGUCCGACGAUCGUUUAUUUUUUCCCCACAGACGCACACACCAACACAUUUAUAUUCAUUGCUUCCUCCCACUUUGUGCUCUGUAAAAGAGCUACAGCUGGCAAGAUGUUUUUUCGGCCCUUUGGAAUUCUCGGGUGCCAA`, “RBNS enrichment (R)” read 1.55.
For `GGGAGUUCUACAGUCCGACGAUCCCCCUUUCUUUGCAACUUCCCAGCAACAAUAAUGAUUUUCUUGCCAGGCCGUCUCUUGCUCCCUAAUUCAUUUCCCAGGAAGCUGUGAUACAGGGUGAAAUAAAGUCUUGUGGAAUUCUCGGGUGCCAA`, “RBNS enrichment (R)” read 0.513.
Under “RBNS enrichment (R)”, `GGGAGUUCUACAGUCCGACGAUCGCCGCAGUGGGGUCAAGCUGAGCUGGCUUCGGAGAUGGAGUCCCUUUUCAUUCUCCUCCUCCUCCCUCCUCACUCCCUAGGCCCAAGUCUCCUAGGGGCUUGGUCCUAGGUGGAAUUCUCGGGUGCCAA` is recorded as 0.403.
`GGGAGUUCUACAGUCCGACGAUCAAGAGUGUGCUUGUCAUCUGCCACUUUCGGGAGGGUGGAUCCACUGUGCAGGAGUGGCCGGGGAAGCUGGCAGCACUCAGUGAGGCCGCCCGGCACACAAGGCACGUUUGUGGAAUUCUCGGGUGCCAA`: “RBNS enrichment (R)” 0.6.
`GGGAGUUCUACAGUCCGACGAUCUUUAUAACCCAUUCAUACUCUCUGGCUGUCCCCAACCUUCAUAGUCUCCUGCAUCCAAAUGUCCUCUUUGGCUCAAAAAGUAGGCCAGGCAUGGUGGUUCAUGCCUGUAAUGGAAUUCUCGGGUGCCAA` — result for “RBNS enrichment (R)”: 0.67.
`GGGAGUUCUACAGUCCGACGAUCUCAUGCAUUUAGAUUUAUAUUUUUGCCAGAAAAUACAAGGUUAUAAUAAAACUAAGAACUACCAUUUUUUCUUUUCUUUUAACCUGUUCUUUUUUUGAGAAUAGUUUCUAUGGAAUUCUCGGGUGCCAA`: “RBNS enrichment (R)” 1.19.
For `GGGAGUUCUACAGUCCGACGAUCCGGUGCUGUGCCUUCAGAUGGGAGGUGGGCGCGGUGGCCUCCUCCUUCCCUCCAGGACCUGCCCGUGUGAAGACCCCCCGGAGUGCUGAGCUUCAGGGCUGCGUGGAAAGUGGAAUUCUCGGGUGCCAA`, “RBNS enrichment (R)” read 0.215.
Under “RBNS enrichment (R)”, `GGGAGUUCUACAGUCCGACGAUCGUGCAGGAAAACAGGACAGACAGAGAGCACCUGAACCCUUGCCAUCUGAUGUCACCAAUUCAGGAAAACGAGUCCUCUCCUAGGACUAUCCCCGGUUCUGGAAAUCAUGUUGGAAUUCUCGGGUGCCAA` is recorded as 0.396.
`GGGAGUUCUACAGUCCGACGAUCAGGGGGCCUGAGGACAGCCUUUUCCUCAGUCCUUGAGAUCAUUGCUCAUCCGUGCCAAACUGGGUAGAUGGGUUGGGAGACUCUCAAAAUGUGCCAAGGAUCCCCUACGUUGGAAUUCUCGGGUGCCAA` — result for “RBNS enrichment (R)”: 0.411.
Under “RBNS enrichment (R)”, `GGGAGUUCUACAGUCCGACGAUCUACGGGGCAGGGCUCAGUCCUGACGCUUGCCACCUGCUCCUACCCGGCCAGGAUGGCUGAGGGCGGAGUCUAUUUUACGCGUCGCCCAAUGACAGGACCUGGAAUGUACUUGGAAUUCUCGGGUGCCAA` is recorded as 0.755.
For `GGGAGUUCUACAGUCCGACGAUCCCCAACUUCUCCCCGGCAGCUCUGCCUCCCUAAGUCUGUGAAGCCGCAGCCCUGCCCUGUCCUGUCCUGUCCUGACUUCAUCUCUCCUUCUGCCCAAGUCUGUGUCCCAUUGGAAUUCUCGGGUGCCAA`, “RBNS enrichment (R)” read 1.09.
`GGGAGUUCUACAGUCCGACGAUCGGAGUGUCCAUCUUUAGGGAAGAAGCAGACACAGGUGCCUUCAGCUGUCCAGUAUGGAGGAACACUCACCUGGACUUGCAGUUGGACUUUGAACAUCAAGAUCAAAUUAGUGGAAUUCUCGGGUGCCAA` — result for “RBNS enrichment (R)”: 0.313.

Single results of other studies
`PhoQ, residues 284 288 289 292 302 303 TNSAEL` gave a fold induction of 0.697 (PhoP, residues 12 14 15 18 19 TPLRH (Escherichia coli, UniProt P23836); Sort-seq, item: YFP reporter; E. coli; PhoQ-PhoP variant library, with: 10 µM Mg2+; baseline: high Mg2+ state, higher = stronger signaling).

Repeated from above (sample 1):
`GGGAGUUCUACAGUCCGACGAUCCAGGGCAUCAUCUCUCGUGCUGUUAGACACCUGUUCAAGAGUAUUGAUGAGAAAAAGACCUCAGCGAUUAAAAACGGGCUUCCUGCUCCAGAUUUUAAAGUGAAUGCCCAGUUCCUAGAGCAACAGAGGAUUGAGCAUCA` gave a bound/input enrichment of 0.24 ratio.
`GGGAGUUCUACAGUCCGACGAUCCCAAGUGAUUCAUCCCAAGGACAGGCCACCCCAUUUGAUGCCUGGACUGAUGACAGUAUGUUAGGGCCUAGUCAAAAUGUUGAAGCUGAGUCAAUUCAGGAUGCCAUGAGUAUGGAAGAGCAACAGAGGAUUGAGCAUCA` has a bound/input enrichment of 0.35 ratio.
With `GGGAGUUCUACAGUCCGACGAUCUAACCACAUCAAGAUGGUUGGGAAGCUGAAGCAGAACUUACUCUUGGCGUGUCUGGUGAUUAGUUCUGUGACUGUGUUUUACCUGGGCCAGCAUGCCAUGGAGUGCCAUCACCGAAUAGACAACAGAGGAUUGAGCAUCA` the bound/input enrichment was 0.518 ratio.
